Experimental data gathered from unrelated publications.
Matrix: plasma

Under “AUC(0-inf) metabolic ratio”, `CONC(=O)/C=C/c1cccc(S(=O)(=O)Nc2ccccc2)c1` is recorded as 0.422 (human, normal liver function; intravenous, 400 mg/m^2 belinostat, cycle 1 day -7, geometric mean; baseline: metabolite over belinostat).
`[2H]C([2H])([2H])Oc1cc2c(cc1OC([2H])([2H])[2H])[C@H]1C[C@H](O)[C@H](CC(C)C(=O)O)CN1CC2` (some centres unmarked): “AUC(0-inf) metabolite share of plasma radioactivity” 9% (healthy human male; oral, 25 mg, geometric mean).
`Cn1c(=O)oc2ccc(-c3ccc(CC(C#N)NC(=O)C4CNCCCO4)c(F)c3)cc21` (centres unmarked) has an AUC(0-inf) of 5680 ng·h/mL (human volunteers; 60 mg single dose, fasted, geometric mean).
`CCc1c2c(nc3ccc(O)cc13)-c1cc3c(c(=O)n1C2)COC(=O)[C@]3(O)CC` has an AUC(0-inf) of 168 ng·h/mL (human patients; intravenous, 24 mg/m^2 of parent drug).
`O=C(O)/C=C/c1cccc(S(=O)(=O)Nc2ccccc2)c1`: “AUC(0-inf) metabolic ratio” 0.452 (human, normal liver function; intravenous, 400 mg/m^2 belinostat, cycle 1 day -7, geometric mean; baseline: metabolite over belinostat).
`O=C(CCc1ccc(CNC(C(=O)OC2CCCC2)C2CCCCC2)cn1)NO` (centres unmarked) gave an AUC(0-inf) of 40.1 ng·h/mL (human; oral, 20 mg single dose, geometric mean).
The AUC(0-inf) of `CC(C)(O)c1ncc([S@](N)(=O)=NC(=O)Nc2c3c(cc4c2CCC4)CCC3)s1` is reported as 3170 ng·h/mL (healthy human volunteers; oral, 3 mg single dose, fasted, capsule formulation).
With `CN1CCC[C@]1(C)/C=C/S(=O)(=O)NC(=O)Nc1c2c(cc3c1CCC3)CCC2` the AUC(0-inf) was 219000 ng·h/mL (human; oral, 100 mg twice daily, day 14, multiple ascending dose).
`NC(=O)/C=C/c1cccc(S(=O)(=O)Nc2ccccc2)c1` — result for “AUC(0-inf) metabolic ratio”: 0.901 (human, normal liver function; intravenous, 400 mg/m^2 belinostat, cycle 1 day -7, geometric mean; baseline: metabolite over belinostat).
With `CCCCCCCCCCCCCCCC(=O)N[C@@H](CCC(=O)NCCCC[C@H](NC(=O)[C@H](C)NC(=O)[C@H](C)NC(=O)[C@H](CCC(N)=O)NC(=O)CNC(=O)[C@H](CCC(=O)O)NC(=O)[C@H](CC(C)C)NC(=O)[C@H](Cc1ccc(O)cc1)NC(=O)[C@H](CO)NC(=O)[C@H](CO)NC(=O)[C@@H](NC(=O)[C@H](CC(=O)O)NC(=O)[C@H](CO)NC(=O)[C@@H](NC(=O)[C@H](Cc1ccccc1)NC(=O)[C@@H](NC(=O)CNC(=O)[C@H](CCC(=O)O)NC(=O)[C@H](C)NC(=O)[C@@H](N)Cc1cnc[nH]1)[C@@H](C)O)[C@@H](C)O)C(C)C)C(=O)N[C@@H](CCC(=O)O)C(=O)N[C@@H](Cc1ccccc1)C(=O)N[C@H](C(=O)N[C@@H](C)C(=O)N[C@@H](Cc1c[nH]c2ccccc12)C(=O)N[C@@H](CC(C)C)C(=O)N[C@H](C(=O)N[C@@H](CCCNC(=N)N)C(=O)NCC(=O)N[C@@H](CCCNC(=N)N)C(=O)NCC(=O)O)C(C)C)[C@@H](C)CC)C(=O)O` the AUC(0-inf) ratio was 111% (healthy humans; concentration not given; baseline: compound over Victoza).
`CC(C)c1cnc(-c2cc(Cl)ccc2F)cc1Nc1ccncc1C(=O)NC(CO)CO` has an AUC(0-inf) ratio of 30 to 40% (human, patients; oral, dose not given, CYP3A drug interaction, together with: enzalutamide multiple dosing; baseline: cycle 2 day 1 over cycle 1 day 1).

Excerpt of the above:
`Cn1c(=O)oc2ccc(-c3ccc(CC(C#N)NC(=O)C4CNCCCO4)c(F)c3)cc21` (centres unmarked) has an AUC(0-inf) of 5680 ng·h/mL (human volunteers; 60 mg single dose, fasted, geometric mean).
`NC(=O)/C=C/c1cccc(S(=O)(=O)Nc2ccccc2)c1` — result for “AUC(0-inf) metabolic ratio”: 0.901 (human, normal liver function; intravenous, 400 mg/m^2 belinostat, cycle 1 day -7, geometric mean; baseline: metabolite over belinostat).
